Experimental data pooled from the literature.
Lines come from different studies, so protocols differ. Numbers after ± are the reported error.
ALOX5: Polyunsaturated fatty acid 5-lipoxygenase (ALOX5, Homo sapiens, UniProt P09917)
Chain of UniProt P09917 (whole entry, looked up): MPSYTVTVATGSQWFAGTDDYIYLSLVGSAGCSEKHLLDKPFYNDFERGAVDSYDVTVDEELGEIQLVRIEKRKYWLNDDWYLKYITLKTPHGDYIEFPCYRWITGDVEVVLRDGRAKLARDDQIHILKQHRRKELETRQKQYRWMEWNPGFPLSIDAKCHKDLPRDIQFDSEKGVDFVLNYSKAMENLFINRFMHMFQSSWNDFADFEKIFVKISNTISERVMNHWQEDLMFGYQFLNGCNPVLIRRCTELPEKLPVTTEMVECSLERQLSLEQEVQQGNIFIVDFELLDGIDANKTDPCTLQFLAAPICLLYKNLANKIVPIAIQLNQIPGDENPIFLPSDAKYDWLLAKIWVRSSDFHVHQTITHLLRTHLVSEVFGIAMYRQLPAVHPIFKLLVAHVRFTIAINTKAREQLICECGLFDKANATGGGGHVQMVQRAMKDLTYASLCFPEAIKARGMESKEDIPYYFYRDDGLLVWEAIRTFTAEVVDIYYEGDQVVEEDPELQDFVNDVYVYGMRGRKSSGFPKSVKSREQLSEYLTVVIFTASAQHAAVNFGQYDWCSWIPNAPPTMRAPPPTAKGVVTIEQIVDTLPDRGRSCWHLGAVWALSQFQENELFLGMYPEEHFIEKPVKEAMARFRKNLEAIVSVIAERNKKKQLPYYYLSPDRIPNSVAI
MAOB: Amine oxidase [flavin-containing] B (MAOB, Homo sapiens, UniProt P27338)
Chain of UniProt P27338 (whole entry, looked up): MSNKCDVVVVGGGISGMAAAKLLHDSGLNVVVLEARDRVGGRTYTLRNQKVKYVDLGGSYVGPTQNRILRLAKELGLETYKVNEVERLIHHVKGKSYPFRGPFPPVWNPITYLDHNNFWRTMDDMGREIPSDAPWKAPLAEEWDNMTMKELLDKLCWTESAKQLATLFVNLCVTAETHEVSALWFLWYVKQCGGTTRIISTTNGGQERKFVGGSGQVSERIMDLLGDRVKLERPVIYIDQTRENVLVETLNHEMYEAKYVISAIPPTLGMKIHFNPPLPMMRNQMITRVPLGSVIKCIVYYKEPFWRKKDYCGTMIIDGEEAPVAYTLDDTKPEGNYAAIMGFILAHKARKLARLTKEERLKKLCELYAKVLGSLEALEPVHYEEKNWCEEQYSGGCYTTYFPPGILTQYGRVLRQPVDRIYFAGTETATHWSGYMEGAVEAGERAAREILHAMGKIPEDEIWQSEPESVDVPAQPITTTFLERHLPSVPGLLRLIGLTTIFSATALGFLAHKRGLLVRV
RIPK1: Receptor-interacting serine/threonine-protein kinase 1 (RIPK1, Homo sapiens, UniProt Q13546)
Chain of UniProt Q13546 (whole entry, looked up): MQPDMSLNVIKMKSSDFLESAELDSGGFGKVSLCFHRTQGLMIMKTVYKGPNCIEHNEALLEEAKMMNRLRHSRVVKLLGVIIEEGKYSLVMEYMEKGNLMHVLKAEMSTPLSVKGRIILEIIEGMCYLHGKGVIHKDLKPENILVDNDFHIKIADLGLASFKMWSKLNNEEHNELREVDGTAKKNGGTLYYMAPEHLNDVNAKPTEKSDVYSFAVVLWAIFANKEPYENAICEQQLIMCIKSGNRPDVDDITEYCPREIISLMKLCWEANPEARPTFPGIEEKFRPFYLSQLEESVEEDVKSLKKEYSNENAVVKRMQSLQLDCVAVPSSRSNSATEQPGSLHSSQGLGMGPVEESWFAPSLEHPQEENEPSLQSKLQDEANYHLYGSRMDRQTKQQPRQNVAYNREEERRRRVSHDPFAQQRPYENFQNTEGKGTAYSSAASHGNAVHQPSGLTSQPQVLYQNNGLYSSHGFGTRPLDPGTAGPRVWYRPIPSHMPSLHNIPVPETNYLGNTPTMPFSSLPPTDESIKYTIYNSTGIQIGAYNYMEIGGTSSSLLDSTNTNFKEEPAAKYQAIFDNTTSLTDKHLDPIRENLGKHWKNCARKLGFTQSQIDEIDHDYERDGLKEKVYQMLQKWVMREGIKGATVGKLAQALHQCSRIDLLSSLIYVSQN
Chain of UniProt Q8R431 (whole entry, looked up): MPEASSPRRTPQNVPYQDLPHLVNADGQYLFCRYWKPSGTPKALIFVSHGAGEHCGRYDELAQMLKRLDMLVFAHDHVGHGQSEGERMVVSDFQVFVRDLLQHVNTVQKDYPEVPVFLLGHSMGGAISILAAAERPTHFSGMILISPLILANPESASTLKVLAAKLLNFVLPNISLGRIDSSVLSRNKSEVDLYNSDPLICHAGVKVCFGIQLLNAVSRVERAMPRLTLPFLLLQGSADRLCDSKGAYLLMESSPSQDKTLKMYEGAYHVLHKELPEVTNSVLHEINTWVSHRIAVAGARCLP
Chain of UniProt P23458 (whole entry, looked up): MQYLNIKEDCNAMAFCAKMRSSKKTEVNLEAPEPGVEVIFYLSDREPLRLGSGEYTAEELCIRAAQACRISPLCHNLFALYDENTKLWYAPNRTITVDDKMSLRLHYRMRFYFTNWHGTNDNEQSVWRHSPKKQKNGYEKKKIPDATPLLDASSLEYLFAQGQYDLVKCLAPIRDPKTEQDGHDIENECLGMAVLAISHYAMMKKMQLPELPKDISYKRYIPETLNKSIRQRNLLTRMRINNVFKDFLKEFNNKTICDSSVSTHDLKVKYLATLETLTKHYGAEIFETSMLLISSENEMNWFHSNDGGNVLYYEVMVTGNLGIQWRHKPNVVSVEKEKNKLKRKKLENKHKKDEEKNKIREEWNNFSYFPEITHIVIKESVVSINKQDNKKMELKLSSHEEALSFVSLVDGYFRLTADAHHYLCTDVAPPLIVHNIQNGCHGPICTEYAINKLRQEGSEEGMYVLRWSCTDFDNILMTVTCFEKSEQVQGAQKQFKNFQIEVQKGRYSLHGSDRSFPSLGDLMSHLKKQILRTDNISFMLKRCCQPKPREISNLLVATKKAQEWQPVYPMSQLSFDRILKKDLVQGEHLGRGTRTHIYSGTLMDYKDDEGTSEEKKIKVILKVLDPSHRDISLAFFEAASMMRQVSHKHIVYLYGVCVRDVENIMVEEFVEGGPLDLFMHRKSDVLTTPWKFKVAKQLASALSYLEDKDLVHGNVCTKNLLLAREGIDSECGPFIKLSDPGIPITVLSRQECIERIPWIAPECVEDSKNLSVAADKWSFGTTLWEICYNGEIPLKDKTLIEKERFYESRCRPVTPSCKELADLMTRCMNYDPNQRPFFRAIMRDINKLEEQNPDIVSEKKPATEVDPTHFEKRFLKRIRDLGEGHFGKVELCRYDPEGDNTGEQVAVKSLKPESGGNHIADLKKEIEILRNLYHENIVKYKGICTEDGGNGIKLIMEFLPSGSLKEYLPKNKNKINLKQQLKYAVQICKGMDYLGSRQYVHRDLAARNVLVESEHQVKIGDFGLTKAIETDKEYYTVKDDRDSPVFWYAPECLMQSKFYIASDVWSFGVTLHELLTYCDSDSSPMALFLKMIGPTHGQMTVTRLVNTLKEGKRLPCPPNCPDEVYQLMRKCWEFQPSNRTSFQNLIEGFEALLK
Chain of UniProt P22071 (whole entry, looked up): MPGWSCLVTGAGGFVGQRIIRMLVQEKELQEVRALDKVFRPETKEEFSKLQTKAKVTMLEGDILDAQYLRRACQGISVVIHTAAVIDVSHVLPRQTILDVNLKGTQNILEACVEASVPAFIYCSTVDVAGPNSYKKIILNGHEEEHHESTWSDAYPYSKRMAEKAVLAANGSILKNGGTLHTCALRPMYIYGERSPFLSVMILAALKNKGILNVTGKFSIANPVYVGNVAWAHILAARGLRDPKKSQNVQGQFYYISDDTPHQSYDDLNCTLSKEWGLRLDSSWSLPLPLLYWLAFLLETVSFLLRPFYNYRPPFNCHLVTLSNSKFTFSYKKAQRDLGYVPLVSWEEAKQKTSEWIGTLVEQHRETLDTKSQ

COc1cc(/C=C/C(=O)CC(=O)CCc2ccc(O)c(OC)c2)ccc1O
remaining activity (Hsd3b1 (Rattus norvegicus, UniProt P22071); inhibitor; rat testicular microsomes; 100 µM, added: pregnenolone substrate; baseline: DMSO): ~50%

Cc1c(O)cc(O)c2c1OC(c1ccc(O)cc1)CC2=O (stereo not drawn)
remaining activity (ALOX5; product formation; activated human PMNL; 10 µM, added: A23187 plus arachidonic acid; baseline: control): 65.7 ± 5.7%

O=C1Nc2ccc(Br)cc2/C1=N/N=C/c1cccc(OCc2ccccc2)c1
remaining activity (MAOB; enzyme activity, inhibitor; 10 µM): 46.9%

CC(C)C(=O)N1CCC=C(c2cc3c(Nc4cc5ncsc5cc4F)ncnc3s2)C1
remaining activity (RIPK1; enzyme activity; 1 µM; baseline: untreated): 101 ± 4%

O=C1Nc2ccc(F)cc2/C1=N/N=C/c1ccc(OCc2cccc(F)c2)cc1
remaining activity (MAOB; enzyme activity, inhibitor; 10 µM): 24.5%

Oc1ccc(C2CCc3ccc(O)cc3O2)cc1 (stereo not drawn)
remaining activity (ALOX5; product formation; activated human PMNL; 10 µM, added: A23187 plus arachidonic acid; baseline: control): 67.4 ± 6.2%

COc1ccc2c(c1)/C(=N/N=C/c1cccc(OCc3ccccc3)c1)C(=O)N2
remaining activity (MAOB; enzyme activity, inhibitor; 10 µM): 48.4%

O=C(C1CC1)N1CC=C(c2cc3c(Nc4cc5ncsc5cc4F)ncnc3s2)CC1
remaining activity (RIPK1; enzyme activity; 1 µM; baseline: untreated): 105 ± 2%

CC1(C)COCN1C(=O)n1nnc2c(F)cc(F)cc21
remaining activity (Monoglyceride lipase (Rattus norvegicus, UniProt Q8R431); inhibitor; rat cerebellum cytosol; 100 µM; baseline: control): 68 ± 3%

CC(C)NC(=O)N1CCC=C(c2cc3c(Nc4cc5ncsc5cc4F)ncnc3s2)C1
remaining activity (RIPK1; enzyme activity; 1 µM; baseline: untreated): 97 ± 3%

COc1ccc2c(c1)/C(=N/N=C/c1ccc(OCc3cccc(F)c3)cc1)C(=O)N2
remaining activity (MAOB; enzyme activity, inhibitor; 10 µM): 50%

CC(C)(C)NC(=O)NC1CC=C(c2cc3c(Nc4cc5ncsc5cc4F)ncnc3s2)CC1 (racemic)
remaining activity (RIPK1; enzyme activity; 1 µM; baseline: untreated): 105 ± 6%

CC1(C)CCN(Cc2ccc(C(=O)NC[C@]3(O)CCCN(c4cc(NCc5ccccc5)ncn4)C3)c(O)c2)CC1
remaining activity (JAK1 (Homo sapiens, UniProt P23458); enzyme activity, inhibitor, radiometric; 10 µM): 101%

Cc1ccc2c(c1)/C(=N/N=C/c1ccc(OCc3cccc(F)c3)cc1)C(=O)N2
remaining activity (MAOB; enzyme activity, inhibitor; 10 µM): 30.3%

O=C(NC1CC1)N1CC=C(c2cc3c(Nc4cc5ncsc5cc4F)ncnc3s2)CC1
remaining activity (RIPK1; enzyme activity; 1 µM; baseline: untreated): 98 ± 2%

Repeated from above:
Cc1ccc2c(c1)/C(=N/N=C/c1ccc(OCc3cccc(F)c3)cc1)C(=O)N2
remaining activity (MAOB; enzyme activity, inhibitor; 10 µM): 30.3%

O=C(NC1CC1)N1CC=C(c2cc3c(Nc4cc5ncsc5cc4F)ncnc3s2)CC1
remaining activity (RIPK1; enzyme activity; 1 µM; baseline: untreated): 98 ± 2%
